Measurements collected from several papers.
Each line is one published result; not all experiments were run side by side. “And” joins repeats or separate records; there may be more than shown.
IL1RL2: Interleukin-1 receptor-like 2 (IL1RL2, Homo sapiens, UniProt Q9HB29)
UniProt Q9HB29, sequence (whole entry, looked up): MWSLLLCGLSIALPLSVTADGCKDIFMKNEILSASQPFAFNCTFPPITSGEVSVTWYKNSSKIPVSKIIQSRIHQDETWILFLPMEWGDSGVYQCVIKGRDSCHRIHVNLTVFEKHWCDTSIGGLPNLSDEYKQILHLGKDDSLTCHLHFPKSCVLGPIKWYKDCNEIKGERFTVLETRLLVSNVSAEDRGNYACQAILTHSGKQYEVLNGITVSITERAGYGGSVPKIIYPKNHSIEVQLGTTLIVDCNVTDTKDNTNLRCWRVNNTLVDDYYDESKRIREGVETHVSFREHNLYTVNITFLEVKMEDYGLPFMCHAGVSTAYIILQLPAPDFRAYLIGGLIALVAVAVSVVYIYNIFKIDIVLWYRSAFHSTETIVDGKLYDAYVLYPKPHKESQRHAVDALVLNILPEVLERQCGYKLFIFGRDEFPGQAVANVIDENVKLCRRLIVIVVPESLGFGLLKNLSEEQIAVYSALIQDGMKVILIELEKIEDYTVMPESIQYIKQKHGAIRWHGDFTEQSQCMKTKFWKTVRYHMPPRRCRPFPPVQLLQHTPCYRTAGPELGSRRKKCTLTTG
DPP9: Dipeptidyl peptidase 9 (DPP9, Homo sapiens, UniProt Q86TI2)
UniProt Q86TI2, sequence (whole entry, looked up): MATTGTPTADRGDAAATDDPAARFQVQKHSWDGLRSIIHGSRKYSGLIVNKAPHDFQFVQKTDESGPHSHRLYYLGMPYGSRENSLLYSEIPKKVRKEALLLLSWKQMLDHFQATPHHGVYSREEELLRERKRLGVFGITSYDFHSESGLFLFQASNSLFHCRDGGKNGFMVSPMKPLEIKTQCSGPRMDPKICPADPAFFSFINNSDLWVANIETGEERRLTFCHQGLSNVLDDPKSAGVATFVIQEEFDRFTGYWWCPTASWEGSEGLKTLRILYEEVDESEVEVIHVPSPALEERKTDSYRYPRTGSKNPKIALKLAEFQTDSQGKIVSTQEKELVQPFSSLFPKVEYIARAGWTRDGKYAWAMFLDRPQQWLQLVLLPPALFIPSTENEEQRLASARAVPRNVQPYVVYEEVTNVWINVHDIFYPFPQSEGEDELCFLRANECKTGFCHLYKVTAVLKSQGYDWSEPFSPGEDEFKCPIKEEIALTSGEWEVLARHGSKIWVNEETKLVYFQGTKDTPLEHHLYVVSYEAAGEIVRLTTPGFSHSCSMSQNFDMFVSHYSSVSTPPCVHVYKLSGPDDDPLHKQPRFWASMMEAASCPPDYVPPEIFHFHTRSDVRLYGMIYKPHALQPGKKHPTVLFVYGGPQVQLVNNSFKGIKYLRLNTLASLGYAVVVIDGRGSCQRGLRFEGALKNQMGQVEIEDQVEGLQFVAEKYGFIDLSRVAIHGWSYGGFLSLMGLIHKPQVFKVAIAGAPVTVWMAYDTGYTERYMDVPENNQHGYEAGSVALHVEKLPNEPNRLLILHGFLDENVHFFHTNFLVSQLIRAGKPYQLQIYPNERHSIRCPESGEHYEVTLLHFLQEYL
UniProt Q02763, sequence (whole entry, looked up): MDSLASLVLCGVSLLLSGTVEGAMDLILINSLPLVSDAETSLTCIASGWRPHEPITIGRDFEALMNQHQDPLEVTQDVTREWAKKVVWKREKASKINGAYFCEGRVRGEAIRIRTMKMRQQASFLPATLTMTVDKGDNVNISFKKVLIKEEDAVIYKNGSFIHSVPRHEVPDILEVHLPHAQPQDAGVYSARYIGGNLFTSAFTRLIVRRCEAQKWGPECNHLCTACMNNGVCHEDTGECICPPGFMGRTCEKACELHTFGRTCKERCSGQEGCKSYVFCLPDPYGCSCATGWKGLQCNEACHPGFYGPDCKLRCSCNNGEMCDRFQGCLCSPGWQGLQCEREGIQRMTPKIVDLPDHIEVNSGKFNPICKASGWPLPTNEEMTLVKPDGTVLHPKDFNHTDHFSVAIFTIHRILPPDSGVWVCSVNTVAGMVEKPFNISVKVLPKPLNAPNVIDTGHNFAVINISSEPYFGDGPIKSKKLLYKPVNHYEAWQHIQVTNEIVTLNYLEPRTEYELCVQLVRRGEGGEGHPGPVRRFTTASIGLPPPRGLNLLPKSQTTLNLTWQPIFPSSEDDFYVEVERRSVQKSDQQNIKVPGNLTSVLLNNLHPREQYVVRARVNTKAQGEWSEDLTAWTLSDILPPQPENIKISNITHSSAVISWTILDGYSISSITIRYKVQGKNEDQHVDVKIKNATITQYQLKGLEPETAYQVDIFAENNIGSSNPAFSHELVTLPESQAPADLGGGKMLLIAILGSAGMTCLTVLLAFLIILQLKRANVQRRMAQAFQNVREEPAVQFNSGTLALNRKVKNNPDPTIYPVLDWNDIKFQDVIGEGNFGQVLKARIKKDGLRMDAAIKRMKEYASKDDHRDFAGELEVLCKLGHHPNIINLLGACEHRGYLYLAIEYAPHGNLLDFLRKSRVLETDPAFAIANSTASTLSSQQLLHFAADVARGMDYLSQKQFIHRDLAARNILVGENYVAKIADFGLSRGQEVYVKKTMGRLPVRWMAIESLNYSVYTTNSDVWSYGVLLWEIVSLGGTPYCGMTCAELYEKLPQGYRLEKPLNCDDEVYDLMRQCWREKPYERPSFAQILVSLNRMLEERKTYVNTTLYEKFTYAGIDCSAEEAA
UniProt P45983, sequence (whole entry, looked up): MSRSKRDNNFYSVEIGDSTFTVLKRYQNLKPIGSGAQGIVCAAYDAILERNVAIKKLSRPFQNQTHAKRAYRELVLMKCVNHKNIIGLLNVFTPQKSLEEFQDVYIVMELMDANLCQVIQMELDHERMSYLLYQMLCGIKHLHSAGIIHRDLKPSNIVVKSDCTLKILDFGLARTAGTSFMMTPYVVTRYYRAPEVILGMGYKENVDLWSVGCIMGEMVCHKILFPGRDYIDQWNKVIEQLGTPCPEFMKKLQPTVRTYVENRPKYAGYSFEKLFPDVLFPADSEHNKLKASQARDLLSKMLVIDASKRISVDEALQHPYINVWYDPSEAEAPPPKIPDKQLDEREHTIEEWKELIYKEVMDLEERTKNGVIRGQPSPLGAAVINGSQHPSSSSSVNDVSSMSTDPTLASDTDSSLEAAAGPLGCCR
UniProt P54132, sequence (whole entry, looked up): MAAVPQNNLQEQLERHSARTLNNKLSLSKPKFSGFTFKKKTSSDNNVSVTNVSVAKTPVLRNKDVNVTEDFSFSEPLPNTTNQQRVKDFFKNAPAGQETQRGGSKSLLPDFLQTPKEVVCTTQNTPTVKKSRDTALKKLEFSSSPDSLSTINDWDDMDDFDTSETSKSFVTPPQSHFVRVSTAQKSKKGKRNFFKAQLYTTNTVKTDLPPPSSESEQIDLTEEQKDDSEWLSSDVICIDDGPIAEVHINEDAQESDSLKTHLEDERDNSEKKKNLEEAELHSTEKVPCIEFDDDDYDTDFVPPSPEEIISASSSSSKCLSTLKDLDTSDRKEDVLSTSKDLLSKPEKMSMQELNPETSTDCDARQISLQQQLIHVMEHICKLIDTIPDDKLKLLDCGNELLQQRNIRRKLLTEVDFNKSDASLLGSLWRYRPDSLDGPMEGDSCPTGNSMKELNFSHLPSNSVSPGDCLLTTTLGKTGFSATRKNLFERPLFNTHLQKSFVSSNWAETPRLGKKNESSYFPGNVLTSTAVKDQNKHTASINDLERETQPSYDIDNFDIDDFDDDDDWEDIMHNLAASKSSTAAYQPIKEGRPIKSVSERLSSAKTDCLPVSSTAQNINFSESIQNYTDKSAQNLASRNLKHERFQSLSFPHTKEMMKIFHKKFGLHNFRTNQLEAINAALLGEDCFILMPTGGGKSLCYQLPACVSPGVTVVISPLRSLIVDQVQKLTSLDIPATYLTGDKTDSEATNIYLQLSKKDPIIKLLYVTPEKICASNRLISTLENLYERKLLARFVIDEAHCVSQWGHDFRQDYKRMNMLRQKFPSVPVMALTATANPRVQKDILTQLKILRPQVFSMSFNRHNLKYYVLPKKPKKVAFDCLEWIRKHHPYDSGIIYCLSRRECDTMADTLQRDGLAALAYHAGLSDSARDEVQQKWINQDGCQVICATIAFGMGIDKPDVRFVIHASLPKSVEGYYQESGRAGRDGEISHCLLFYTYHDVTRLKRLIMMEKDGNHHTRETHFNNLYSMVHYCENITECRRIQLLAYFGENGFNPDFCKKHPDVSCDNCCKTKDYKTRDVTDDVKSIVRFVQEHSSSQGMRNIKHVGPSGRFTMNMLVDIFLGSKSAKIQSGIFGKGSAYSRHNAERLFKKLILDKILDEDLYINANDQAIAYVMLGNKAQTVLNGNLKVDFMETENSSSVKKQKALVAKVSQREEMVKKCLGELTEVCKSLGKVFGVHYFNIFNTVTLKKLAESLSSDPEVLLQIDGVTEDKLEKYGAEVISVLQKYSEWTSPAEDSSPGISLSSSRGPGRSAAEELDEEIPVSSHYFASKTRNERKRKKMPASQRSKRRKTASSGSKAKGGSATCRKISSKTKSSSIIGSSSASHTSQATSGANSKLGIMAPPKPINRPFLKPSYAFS
UniProt Q16539, sequence (whole entry, looked up): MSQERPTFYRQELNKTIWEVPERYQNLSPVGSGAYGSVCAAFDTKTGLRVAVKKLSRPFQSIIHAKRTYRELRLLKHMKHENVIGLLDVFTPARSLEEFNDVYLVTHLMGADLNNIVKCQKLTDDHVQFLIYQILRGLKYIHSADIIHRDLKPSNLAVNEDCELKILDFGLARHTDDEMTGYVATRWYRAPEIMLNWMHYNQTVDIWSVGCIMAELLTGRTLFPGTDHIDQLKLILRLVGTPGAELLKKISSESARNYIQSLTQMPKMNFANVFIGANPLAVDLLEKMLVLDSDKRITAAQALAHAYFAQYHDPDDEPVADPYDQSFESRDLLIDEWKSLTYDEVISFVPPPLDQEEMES

N#Cc1cnc2sc(C(=O)O)cc2c1N1CCc2[nH]nc(C(=O)N[C@@H](CC(=O)NCCOCCN3CCOCC3)c3cccc(Br)c3)c2C1 — remaining activity (IL1RL2; SEAP reporter gene, antagonist; HEK-Blue IL-36R cells; 0.14 µM, 6 h, added: IL-36β 0.003 ng/mL; baseline: untreated): 106%
COC(=O)[C@@]1(C)C=C(C(=O)Nc2cccc(C(=O)Nc3ccc(Nc4nccc(-c5cccnc5)n4)c(C)c3)c2)C(=O)CC1 — remaining activity (MAPK14 (Homo sapiens, UniProt Q16539); kinase activity, inhibitor; 0.06097 µM, unit not given; baseline: no inhibitor): 1.1
CCC1(CC)C(=O)N(c2cccc(CN3CCN(Cc4cccc5ccccc45)CC3)c2)C1=O — remaining activity (DPP9; enzyme activity, inhibitor; 5 µM): 45%
COc1ccccc1-c1ccncc1C(=O)Nc1nnc(OCc2ccc(Cl)cc2)s1 — remaining activity (RecQ-like DNA helicase BLM, residues 636–1298 (BLM, Homo sapiens, UniProt P54132); ATPase activity, ADP-Glo; 30 µM, 1 h): 73%
COc1ccc(NC(=O)Nc2ccc3c(c2)C(=O)N(C(C)CO)CC(C)C(CN(C)Cc2ccc4c(c2)OCO4)O3)cc1 (stereo not shown) — remaining activity (TEK (Homo sapiens, UniProt Q02763); kinase activity; 0.03 µM; baseline: control): 104%
CC(C)[C@@H]1NC(=O)[C@H](Cc2ccccc2)NC(=O)CSC[C@@H](C(N)=O)NC(=O)[C@H](CCC(=O)O)NC(=O)[C@H](CO)NC(=O)[C@H](Cc2c[nH]c3cccc(Cl)c23)NC(=O)[C@H](C2CCCCC2)NC(=O)[C@H](C(C)C)NC(=O)[C@H](Cc2ccc(O)cc2)NC(=O)[C@H](CC(=O)O)NC(=O)[C@H](Cc2c[nH]c3ccccc23)NC(=O)[C@H](Cc2ccc(N)nc2)NC(=O)[C@H](Cc2c[nH]c3ccc(Cl)cc23)NC(=O)[C@H](CCC(=O)O)NC1=O — remaining activity (IL1RL2; reporter gene (SEAP), inhibitor, HEK-Blue IL-36R reporter; HEK-Blue IL-36R cells; 0.005 µM, 6 h, added: IL-36γ 0.3 ng/mL): 102%
C=C1C[C@@]2(C(=O)OC)C=C(C(=O)Nc3cccc(C(=O)Nc4ccc(Nc5nccc(-c6cccnc6)n5)c(C)c4)c3)C(=O)[C@@H]1C2 — remaining activity (MAPK8 (Homo sapiens, UniProt P45983); kinase activity, inhibitor; 8.363e-05 µM, unit not given, added: 10 mM glutathione; baseline: no inhibitor): 0.997
CN(Cc1cc(C2CC2)on1)C(=O)c1cccc(-c2ccc3c(c2)CCO3)c1 — remaining activity (Acetyl-CoA synthetase (Cryptococcus neoformans, UniProt J9VFT1); enzyme activity, inhibitor, coupled pyrophosphate; 1.56 µM): 96.6% and 95.4%
C[C@](C(=O)NC1CCOCC1)(c1cncnc1)N(C(=O)[C@H](F)Cl)c1ccc(OC(F)(F)Cl)cc1 — remaining activity (DPP4 (Homo sapiens, UniProt P27487); enzyme activity, inhibitor; 10 µM): 95.6%
CCC1(CC)C(=O)N(c2cccc(CN3CCN(Cc4ccc(Br)cc4)CC3)c2)C1=O — remaining activity (DPP9; enzyme activity, inhibitor; 5 µM): 61%
CO[C@@H]1[C@@H](OC(=O)c2ccc(C)[nH]2)[C@@H](O)[C@H](Oc2ccc3c(O)c(NC(=O)c4c[nH]c(C(=O)Nc5c(O)c6ccc(O[C@@H]7OC(C)(C)[C@H](OC)[C@@H](OC(=O)c8ccc(C)[nH]8)[C@H]7O)c(C)c6oc5=O)c4C)c(=O)oc3c2C)OC1(C)C — remaining activity (human CMG helicase; helicase activity; 125 µM, added: ATP 2 mM): 2%
C[C@@H]1c2nnn(-c3ncc(F)cn3)c2CCN1C(=O)c1cccc(C(F)(F)F)c1Cl — remaining activity (P2X purinoceptor 7 (Ailuropoda melanoleuca, UniProt G1M6C4); ATP-evoked current, whole-cell patch clamp; HEK293 (transfected); 0.0003 µM; baseline: no compound): 91.6%
COc1cc(Nc2nc(C)cc(-c3cnn4nc(OC)ccc34)n2)cc(C(F)(F)F)c1 — remaining activity (FLT3 (Homo sapiens, UniProt P36888); inhibitor; 1 µM; baseline: control): 100%
